Assay results from different studies.
Each numbered part is a random draw from the data of one study; scales do not carry over between parts. Substitutions count along the parent as printed.

Block 1 — method: RNA Bind-n-Seq; molecule type: RNA; sample: in vitro; tested at: 200 nM; setting: whole 134-nt RNA, ends assumed; added: 150 mM LiCl; reference: input library; direction: higher = stronger binding; all molecules: 7-deaza-guanosine replaces G
Target: Ras GTPase-activating protein-binding protein 1, full length (G3BP1, Homo sapiens, UniProt Q13283)
Chain of UniProt Q13283 (whole entry, looked up): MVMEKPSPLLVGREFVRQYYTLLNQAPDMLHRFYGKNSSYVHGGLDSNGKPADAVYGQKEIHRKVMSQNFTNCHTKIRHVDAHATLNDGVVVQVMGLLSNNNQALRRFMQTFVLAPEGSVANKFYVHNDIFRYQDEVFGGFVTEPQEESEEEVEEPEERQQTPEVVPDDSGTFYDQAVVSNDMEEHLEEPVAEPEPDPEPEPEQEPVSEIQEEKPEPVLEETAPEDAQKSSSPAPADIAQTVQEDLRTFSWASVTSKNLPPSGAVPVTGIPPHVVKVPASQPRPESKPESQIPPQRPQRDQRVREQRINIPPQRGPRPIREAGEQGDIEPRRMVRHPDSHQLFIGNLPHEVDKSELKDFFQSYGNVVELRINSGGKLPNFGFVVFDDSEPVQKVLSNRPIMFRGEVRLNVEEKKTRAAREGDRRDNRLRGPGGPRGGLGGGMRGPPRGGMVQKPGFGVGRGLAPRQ
With `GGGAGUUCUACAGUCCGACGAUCAGUCCUGUGCUACACAUCGUAUGUACCGAAUCGGGCCCCCGGCCCCCGGCCCCCGGGGAAAGUAUUAUGUUACGCCGUUCGGAUCUGCACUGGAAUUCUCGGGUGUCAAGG` the log2 enrichment was 0.327.
For `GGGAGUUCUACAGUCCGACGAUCUCCUCAAGUCCUGUGCUACACAUCGUAUGUACCGAAUCGGAGGUGGAAAGGAAAGUAUUAUGUUACGCCGUUCGGAUCUGCACUUCCAGCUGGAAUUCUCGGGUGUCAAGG`, the log2 enrichment was -0.605.
With `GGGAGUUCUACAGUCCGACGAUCUCAAGUCCUGUGCUACACAUCGUAUGUACCGAAUCGGAAAGGAAAGGGGAAAGGAAAGUAUUAUGUUACGCCGUUCGGAUCUGCACUUCCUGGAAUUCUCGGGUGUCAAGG` the log2 enrichment was -0.327.
With `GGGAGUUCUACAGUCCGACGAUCAAGUCCUGUGCUACACAUCGUAUGUACCGAAUCGGUUUUGGUUUUGGGGUUUUGGGGAAAGUAUUAUGUUACGCCGUUCGGAUCUGCACUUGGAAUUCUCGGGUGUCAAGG` the log2 enrichment was 0.0534.
The log2 enrichment of `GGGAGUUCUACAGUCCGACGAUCUUCCUCAAGUCCUGUGCUACACAUCGUAUGUACCGAAUCGGCGGCGGCGGAAAGUAUUAUGUUACGCCGUUCGGAUCUGCACUUCCAGCAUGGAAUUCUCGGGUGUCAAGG` is reported as 0.906.
For `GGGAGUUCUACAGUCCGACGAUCUCAAGUCCUGUGCUACACAUCGUAUGUACCGAAUCGGUUUGGGUUUGGGUUUGGGAAAGUAUUAUGUUACGCCGUUCGGAUCUGCACUUCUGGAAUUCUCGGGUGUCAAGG`, the log2 enrichment was -1.4.
`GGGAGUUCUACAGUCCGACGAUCAAGUCCUGUGCUACACAUCGUAUGUACCGAAUCAAAUUUAAAUUUAAACCCCCAAAAAAGUAUUAUGUUACGCCGUUCGGAUCUGCACUUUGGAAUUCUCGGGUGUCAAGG` gave a log2 enrichment of 1.33.
The log2 enrichment of `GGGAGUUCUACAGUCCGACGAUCGUCCUGUGCUACACAUCGUAUGUACCGAAUCGGGCCCCCGGCCCCCGGGCCCCCGGGGAAAGUAUUAUGUUACGCCGUUCGGAUCUGCACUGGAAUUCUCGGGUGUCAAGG` is reported as -0.791.

Block 2 — target: CCNE2, cyclin fold, Cln2 fusion (human); method: yeast growth competition, sequencing; sample: yeast; setting: weak parent motif; reference: not given; direction: higher = stronger binding
Starting sequence: E2F8 docking peptide (human); FVPQRKLEVSTED
For `L7A`, “normalised enrichment score” read -0.273.
`K6A`: “normalised enrichment score” 0.279.
`R5K V9F`: “normalised enrichment score” -0.073.
`D13A`: “normalised enrichment score” -0.109.
`F1A` — result for “normalised enrichment score”: 0.402.
`P3A`: “normalised enrichment score” 0.241.
`R5K V9L` — result for “normalised enrichment score”: -0.102.
`Q4A` — result for “normalised enrichment score”: -0.949.

Block 3 — target: CDC34 UBC core domain (UniProt P49427); method: yeast two-hybrid; sample: yeast; setting: mostly zero background; reference: not given; direction: higher = stronger interaction
Chain of UniProt P49427 (whole entry, looked up): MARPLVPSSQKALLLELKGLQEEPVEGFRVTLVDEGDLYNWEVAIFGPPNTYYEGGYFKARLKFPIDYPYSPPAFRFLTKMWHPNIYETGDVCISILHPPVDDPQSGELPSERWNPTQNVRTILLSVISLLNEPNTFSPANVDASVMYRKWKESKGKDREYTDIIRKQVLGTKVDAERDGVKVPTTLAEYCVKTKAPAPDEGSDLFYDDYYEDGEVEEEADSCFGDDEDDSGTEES
B1: RNF133 RING domain (UniProt Q8WVZ7); chain DEEINPNGDSCVICFERYKPNDIVRILTCKHFFHKNCIDPWILPHGTCPICKCDILKVLGIQ
B2: SYTL4 RING domain (UniProt Q96C24); chain RGSQHYSDRTCARCQESLGRLSPKTNTCRGCNHLVCRDCRIQESNGTWRCKVCAKEIELKKAT
B3: MAP3K1 RING domain (UniProt Q13233); chain NSIKDEEEQMCPICLLGMLDEESLTVCEDGCRNKLHHHCMSIWAEECRRNREPLICPLCRSKWRSHDFYS
B4: ZMIZ2 RING domain (UniProt Q8NF64); chain GTIPGTPGPNGEDGVEQTAIKVSLKCPITFRRIQLPARGHDCRHIQCFDLESYLQLNCERGTWRCPVCNKTALLEGLEVDQYMLGILIYIQNSDYEEITIDPTCSWK
`NLSELTPYILCSICKGYLIDATTITECLHTFCKSCIVRHFYYSNRCPKCNIVVHQTQPLY (PCGF6 RING domain (UniProt Q9BYE7))`: “lacZ reporter activity” 0.
For `B1 (RNF133 RING domain)`, “lacZ reporter activity” read 0.
For `KETIKKTTKPCPRCHVPVEKNGGCMHMKCPQPQCRLEWCWNCGCEWNRVCMG (PRKN RING domain (UniProt O60260))`, “lacZ reporter activity” read 0.
`B2 (SYTL4 RING domain)`: “lacZ reporter activity” 0.
Under “lacZ reporter activity”, `AVPSGLEENLCKICMDSPIDCVLLECGHMVTCTKCGKRMNECPICRQYVIRAVHVF (RFFL RING domain (UniProt Q8WZ73))` is recorded as 0.
`YQNEVDDDLVCHICLQPLLQPLDTPCGHTFCYKCLRNFLQEKDFCPLDRKRLHFKLCKK (LNX2 RING domain (UniProt Q8N448))`: “lacZ reporter activity” 0.
`B3 (MAP3K1 RING domain)` — result for “lacZ reporter activity”: 0.
Under “lacZ reporter activity”, `B4 (ZMIZ2 RING domain)` is recorded as 0.
For `KLRKLKEAMLCMVCCEEEINSTFCPCGHTVCCESCAAQLQSCPVCRSRVEHVQHVY (MYLIP RING domain (UniProt Q8WY64))`, “lacZ reporter activity” read 0.
`PEDRESLKSACVVCLSSFKSCVFLECGHVCSCTECYRALPEPKKCPICRQAITRVIPLY (MUL1 RING domain (UniProt Q969V5))` — result for “lacZ reporter activity”: 0.

Block 4 — method: protein-binding microarray; molecule type: double-stranded DNA, one strand shown; sample: in vitro; tested at: 250 nM; setting: 60-bp whole probe; added: salmon DNA 0.4 mg/ml; reference: random background probes; direction: higher = stronger binding; constant ends, left off below: GCCTAGCAC … GTCTTGATTCGCTTGACGCTGCTG
Target: Interferon regulatory factor 5, full length, phosphomimetic (IRF5, Homo sapiens, UniProt Q13568-2, residues 1-514, K96S/S451D/S453D/S456D/S462D)
With `TAGTTTTACTTTCTATCTCTGTGCTAG` the log fluorescence was 5.82 z-score.
With `GACGGTCTCGGACTGGCGACGTGCTAG` the log fluorescence was -0.452 z-score.
With `GACGGTCTCCTACTGCTCACGTGCTAG` the log fluorescence was -0.351 z-score.
For `GACGATATCAGTCTCGAGGCGTGCTAG`, the log fluorescence was 1.19 z-score.
For `GACGGACTGGGGACTGGGGCCGTGCTA`, the log fluorescence was -0.624 z-score.
`GACGGTTCCGGTTTCGGGTCGTGCTAG` has a log fluorescence of 6.35 z-score.
The log fluorescence of `TGCTTTCTCTTTCACTACTCGTGCTAG` is reported as 8.54 z-score.
For `GGCGAACTGAGACTGGAGACGTGCTAG`, the log fluorescence was -0.545 z-score.
The log fluorescence of `TTAGATATCAGTTTCGATTTGTGCTAG` is reported as 9.62 z-score.
`AAGAATCAGGGGTTTTATCCGTGCTAG` gave a log fluorescence of -0.366 z-score.
`GTCGGACTGGACACTGGGGACGTGCTA` gave a log fluorescence of -0.742 z-score.
`CTAGGTCTCGGTCTCGGTTAGTGCTAG` has a log fluorescence of 0.459 z-score.
The log fluorescence of `GACGGTTTCGGACTGGGAACGTGCTAG` is reported as 4.37 z-score.
`CAGAAAATGGAAACTCGTATGGTGCTA` gave a log fluorescence of 1.04 z-score.
`GACGGTTTCGGTTCCGGGGCGTGCTAG` gave a log fluorescence of 9.9 z-score.
`GTAGGTTTCGGACTGGGTTAGTGCTAG` has a log fluorescence of 4.86 z-score.
`TTAGGTTTCGACGCTGGGTTAGTGCTA` has a log fluorescence of 5.2 z-score.
With `ATAGGTTTCGGGTTTCGGTTAGTGCTA` the log fluorescence was 9.69 z-score.
For `TCATCTAACCTCTCTAATACTGTGCTA`, the log fluorescence was 0.191 z-score.

Excerpt of the above (block 1):
With `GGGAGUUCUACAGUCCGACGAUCAGUCCUGUGCUACACAUCGUAUGUACCGAAUCGGGCCCCCGGCCCCCGGCCCCCGGGGAAAGUAUUAUGUUACGCCGUUCGGAUCUGCACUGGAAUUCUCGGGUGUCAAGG` the log2 enrichment was 0.327.
For `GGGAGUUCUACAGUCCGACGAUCUCCUCAAGUCCUGUGCUACACAUCGUAUGUACCGAAUCGGAGGUGGAAAGGAAAGUAUUAUGUUACGCCGUUCGGAUCUGCACUUCCAGCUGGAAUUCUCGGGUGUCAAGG`, the log2 enrichment was -0.605.
With `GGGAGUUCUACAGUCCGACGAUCUCAAGUCCUGUGCUACACAUCGUAUGUACCGAAUCGGAAAGGAAAGGGGAAAGGAAAGUAUUAUGUUACGCCGUUCGGAUCUGCACUUCCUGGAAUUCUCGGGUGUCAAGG` the log2 enrichment was -0.327.
With `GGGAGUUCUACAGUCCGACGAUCAAGUCCUGUGCUACACAUCGUAUGUACCGAAUCGGUUUUGGUUUUGGGGUUUUGGGGAAAGUAUUAUGUUACGCCGUUCGGAUCUGCACUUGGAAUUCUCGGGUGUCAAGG` the log2 enrichment was 0.0534.
The log2 enrichment of `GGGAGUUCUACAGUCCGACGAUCUUCCUCAAGUCCUGUGCUACACAUCGUAUGUACCGAAUCGGCGGCGGCGGAAAGUAUUAUGUUACGCCGUUCGGAUCUGCACUUCCAGCAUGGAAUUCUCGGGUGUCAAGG` is reported as 0.906.
For `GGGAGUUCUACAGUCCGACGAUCUCAAGUCCUGUGCUACACAUCGUAUGUACCGAAUCGGUUUGGGUUUGGGUUUGGGAAAGUAUUAUGUUACGCCGUUCGGAUCUGCACUUCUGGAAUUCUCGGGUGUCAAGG`, the log2 enrichment was -1.4.
`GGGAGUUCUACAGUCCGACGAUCAAGUCCUGUGCUACACAUCGUAUGUACCGAAUCAAAUUUAAAUUUAAACCCCCAAAAAAGUAUUAUGUUACGCCGUUCGGAUCUGCACUUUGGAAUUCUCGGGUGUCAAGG` gave a log2 enrichment of 1.33.
